Measurements collected from several papers.
Numbered parts are unrelated; each lists some results of a single study. Substitutions count along the parent as printed.

Set 1 — technique: protein binding microarray; form: double-stranded DNA, one strand shown; medium: in vitro; tested at: not given; reference: not given; reading: higher = stronger binding
Target: Histone acetyltransferase KAT6A, both winged helices, GST fusion (KAT6A, Homo sapiens, UniProt Q92794, residues 1-181)
Setting: 8-mer, flanks averaged, mean of 2 arrays, mostly near background
Construct (chain): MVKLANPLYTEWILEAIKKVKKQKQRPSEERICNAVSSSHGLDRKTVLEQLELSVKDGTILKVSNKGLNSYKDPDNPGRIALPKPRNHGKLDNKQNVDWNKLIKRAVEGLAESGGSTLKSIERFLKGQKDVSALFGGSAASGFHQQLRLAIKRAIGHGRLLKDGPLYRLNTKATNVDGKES
Strand	E-score
CGCCCTGC	0.217
CCAGCTGC	-0.0471
AGACAGCT	-0.186
GACCGGCC	0.122
AGCCCGGC	0.151
ACTTGGGA	-0.163
ACTACTAT	-0.0975
ACTCGCAA	-0.0197
CCGCCGCG	0.392
AACCTTTC	0.0206
ATGGTTGC	-0.0513
AATTCCTA	-0.221
CCCTCGTA	0.0248
AGCCGGAC	0.187
AGCTATTG	-0.156
CGACACGA	0.122
GTTCTTTA	0.00097
AGCACACT	0.0144
CCAGACCC	-0.0326
ATTCCAAG	-0.168
TAGGTGCA	-0.286
AAGGCTAT	-0.0965
AAGATTCA	-0.0743
ACACACTA	-0.0139
TCGCGCAA	0.301

Set 2 — technique: universal PBM; form: double-stranded DNA, one strand shown; medium: in vitro; tested at: 600 nM; reading: higher = stronger binding
Target: Sal-like protein 4, full length isoform A (SALL4, Homo sapiens, UniProt Q9UJQ4, residues 1-1053)
Sequence of UniProt Q9UJQ4 (whole entry, looked up): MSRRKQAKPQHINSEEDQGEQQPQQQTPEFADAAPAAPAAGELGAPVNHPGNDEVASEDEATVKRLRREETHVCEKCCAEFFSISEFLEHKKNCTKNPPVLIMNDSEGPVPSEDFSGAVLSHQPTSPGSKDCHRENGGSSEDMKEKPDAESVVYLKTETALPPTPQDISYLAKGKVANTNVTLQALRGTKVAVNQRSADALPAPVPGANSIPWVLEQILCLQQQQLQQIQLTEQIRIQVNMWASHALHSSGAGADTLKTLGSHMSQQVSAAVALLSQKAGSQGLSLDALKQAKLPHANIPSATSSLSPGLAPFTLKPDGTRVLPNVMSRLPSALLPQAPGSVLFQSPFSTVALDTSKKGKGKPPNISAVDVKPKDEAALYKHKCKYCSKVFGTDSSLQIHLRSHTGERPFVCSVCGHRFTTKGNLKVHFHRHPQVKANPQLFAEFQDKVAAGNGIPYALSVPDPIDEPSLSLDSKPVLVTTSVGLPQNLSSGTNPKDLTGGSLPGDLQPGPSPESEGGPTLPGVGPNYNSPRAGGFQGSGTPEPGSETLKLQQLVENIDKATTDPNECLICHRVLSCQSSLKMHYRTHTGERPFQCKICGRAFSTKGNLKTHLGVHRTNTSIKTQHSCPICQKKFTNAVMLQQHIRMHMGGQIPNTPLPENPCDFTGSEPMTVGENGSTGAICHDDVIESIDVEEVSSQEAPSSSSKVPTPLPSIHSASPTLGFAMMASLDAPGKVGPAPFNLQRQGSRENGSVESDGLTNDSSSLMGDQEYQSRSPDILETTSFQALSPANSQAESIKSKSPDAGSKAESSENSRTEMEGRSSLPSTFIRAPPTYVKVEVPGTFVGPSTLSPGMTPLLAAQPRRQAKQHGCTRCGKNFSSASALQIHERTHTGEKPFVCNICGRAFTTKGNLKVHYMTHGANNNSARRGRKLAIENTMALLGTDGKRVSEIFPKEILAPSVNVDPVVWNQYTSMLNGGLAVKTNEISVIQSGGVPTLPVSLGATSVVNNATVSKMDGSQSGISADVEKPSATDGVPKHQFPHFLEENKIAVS
Setting: 8-mer, flanks averaged, mean of replicates
Strand	E-score
ACGGTATA	-0.06
CGGATAAC	-0.034
CCCTGCAG	-0.231
AGATATTC	0.194
GAGCTTCA	-0.0342
ATAAGCAG	0.167
GCACAGCC	-0.343
CGGGGCAC	-0.26
CCAATCAG	-0.221
CTAGAAAG	0.0461
GTATCCTA	0.00524
GCGCTTCC	-0.204
AGTAGTGC	-0.158
GCGTGCTA	-0.163
CAAGGCGG	-0.3
ACGTGCGA	-0.181
ATTTTCGA	0.299
GAGGAACC	-0.206
ACGGGTTC	-0.249
CTTGCGGC	-0.289
AATGTTAA	0.303
CTGTGCCC	-0.236
TCAAAGAA	0.163
CAATACAG	0.0379
AATTCACA	0.281

Set 3 — technique: protein-binding microarray; form: double-stranded DNA, one strand shown; medium: in vitro; tested at: not given; reading: higher = stronger binding
Target: Transcription factor SOX-2, HMG box (SOX2, Homo sapiens, UniProt P48431, residues 19-118)
Sequence of UniProt P48431 (19-118, looked up): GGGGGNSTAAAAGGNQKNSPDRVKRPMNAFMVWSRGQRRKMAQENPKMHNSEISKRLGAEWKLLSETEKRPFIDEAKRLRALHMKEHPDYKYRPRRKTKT
Setting: k-mer, scored over probes, only values ≥0.25
Strand	E-score
CGATTCA	0.326
AAAAATT	0.273
AAATTAA	0.296
AAAACAA	0.337
ACAAAGG	0.381
TAATTCA	0.427
GAATTGA	0.346
GAAACAA	0.287
ACAATAC	0.426
ATAGAAA	0.281
AATATTA	0.332
ATATAAT	0.364
CATTGAC	0.364
AATTGGG	0.299
ATTGATC	0.323
AATAGGC	0.277

Set 4 — target: CCNB2, cyclin fold, Cln2 fusion (human); technique: yeast growth competition, sequencing; medium: yeast; setting: strong parent motif; reference: not given; reading: higher = stronger binding
Parent: BRCA2 docking peptide (human); PSIKRNLLNEFDR
Variant	normalised enrichment score
R13C	3.75
R5F	-0.0855
N6H	0.609
L8Y	3.22
S2D	3.65
R5T	0.864
D12T	2.92
R5M	1.92
L8F	3.83
I3K	0.565
P1I	3.52
E10C	0.457
N6W	0.307
R5D	0.126
E10T	-0.641
R13V	3.71
N6R	1.4

Set 5 — technique: protein-binding microarray; form: double-stranded DNA, one strand shown; medium: in vitro; tested at: 250 nM; setting: 60-bp whole probe; added: salmon DNA 0.4 mg/ml; reference: random background probes; reading: higher = stronger binding; shared flanks, not repeated: GCCTAGCAC … GTCTTGATTCGCTTGACGCTGCTG
Target: Interferon regulatory factor 5, full length, phosphomimetic (IRF5, Homo sapiens, UniProt Q13568-2, residues 1-514, K96S/S451D/S453D/S456D/S462D)
Strand	log fluorescence
GACGGTATCCTATTGCTGACGTGCTAG	0.232 z-score
GTTGTACTTTCTATCTCTGTGTGCTAG	3.6 z-score
TCTCTCCCTTTATCTCTTTTGTGCTAG	0.988 z-score
TCAAGTCTGGGCTACAACACTGTGCTA	-0.677 z-score
GGTCAGTCAGGTCACTTCTGGTGCTAG	-0.408 z-score
GACGGTTTCGACTTTTGGGACGTGCTA	5.32 z-score
TTAAGTATCGGGTATCGGTTAGTGCTA	7.81 z-score
TTAAATCTCAGTCTCGATTAGTGCTAG	1.27 z-score
TTAGGTTTCCTTTCCCTTCAGTGCTAG	1.83 z-score
TTGGGTTTCGGGACTGGGTTAGTGCTA	4.76 z-score
TCATATATATTTATGTAACTGTGCTAG	0.547 z-score
GACGATTACGGGTATCGAGACGTGCTA	0.677 z-score
TGTTCTTTTCTGTTGTCTGTGTGCTAG	2.62 z-score
GACGGTATCGGGTATCGAGACGTGCTA	3.4 z-score
TACGATTTCGGGTATCGAGACGTGCTA	4.46 z-score
AGCCTTATCCCTAATCTCAGCGTGCTA	-0.198 z-score
TCATCTCCCAAGTCTTGTACTGTGCTA	0.0827 z-score

Mixed results
Substance	target	test	test system	setting	scale	measurement	value
PhoQ, residues 284 288 289 292 302 303 QWGLFV	PhoP, residues 12 14 15 18 19 LHATL (Escherichia coli, UniProt P23836)	Sort-seq, refers to: YFP reporter	E. coli	PhoQ-PhoP variant library, added: 10 µM Mg2+	reference: high Mg2+ state, higher = stronger signaling	fold induction	18
